Experimental data gathered from unrelated publications.
Parts stem from different laboratories: compare values within a part only. Substitutions count along the parent as printed.

Study 1 — technique: universal PBM; form: double-stranded DNA, one strand shown; matrix: in vitro; concentration: 600 nM; reading: higher = stronger binding; endpoint: E-score
Target: Sal-like protein 4, full length isoform A (SALL4, Homo sapiens, UniProt Q9UJQ4, residues 1-1053)
Sequence of UniProt Q9UJQ4 (whole entry, looked up): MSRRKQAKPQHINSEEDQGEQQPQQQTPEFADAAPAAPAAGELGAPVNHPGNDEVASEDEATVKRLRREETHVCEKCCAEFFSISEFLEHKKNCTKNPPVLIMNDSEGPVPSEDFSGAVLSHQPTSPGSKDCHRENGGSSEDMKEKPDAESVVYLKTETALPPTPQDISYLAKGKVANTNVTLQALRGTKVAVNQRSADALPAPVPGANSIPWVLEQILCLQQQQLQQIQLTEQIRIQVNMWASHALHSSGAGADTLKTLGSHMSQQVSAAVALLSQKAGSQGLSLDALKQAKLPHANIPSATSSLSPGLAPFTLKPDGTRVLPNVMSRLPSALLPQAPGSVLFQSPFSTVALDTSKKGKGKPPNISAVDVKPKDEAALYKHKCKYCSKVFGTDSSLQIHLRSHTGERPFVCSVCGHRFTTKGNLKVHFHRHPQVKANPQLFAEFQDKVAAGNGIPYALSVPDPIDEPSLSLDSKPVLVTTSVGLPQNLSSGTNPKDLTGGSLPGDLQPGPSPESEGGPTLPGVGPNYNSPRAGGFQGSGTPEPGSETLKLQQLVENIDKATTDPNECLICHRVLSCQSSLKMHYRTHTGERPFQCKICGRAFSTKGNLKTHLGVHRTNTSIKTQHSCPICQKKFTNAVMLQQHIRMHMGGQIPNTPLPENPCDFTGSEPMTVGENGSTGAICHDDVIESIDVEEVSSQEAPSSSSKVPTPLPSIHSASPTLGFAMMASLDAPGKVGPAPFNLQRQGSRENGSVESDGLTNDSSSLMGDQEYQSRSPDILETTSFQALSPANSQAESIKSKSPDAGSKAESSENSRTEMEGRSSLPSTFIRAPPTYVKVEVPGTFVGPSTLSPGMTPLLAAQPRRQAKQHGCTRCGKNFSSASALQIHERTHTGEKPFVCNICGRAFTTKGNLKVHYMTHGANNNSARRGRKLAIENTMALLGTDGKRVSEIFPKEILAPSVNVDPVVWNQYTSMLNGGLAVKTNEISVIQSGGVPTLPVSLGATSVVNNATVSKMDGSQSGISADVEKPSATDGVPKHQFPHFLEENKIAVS
Notes: 8-mer, flanks averaged, mean of replicates
AGCAGGCG: -0.242
AGTGACCC: -0.314
ACTTCCTA: 0.0671
AACGAAGT: 0.191
AGAGACAA: 0.0661
AAGTGTAA: 0.125
CTCGATCA: -0.0898
AGCAGTGG: -0.211

Study 2 — technique: DHFR PCA, deep sequencing; matrix: yeast; together with: (+)-ABA 0.032 µM; relative to: wild-type fitted maximum; reading: higher = stronger binding; endpoint: relative binding score
Target: ABI1, truncated, D143A, DHFR fusion (Arabidopsis thaliana)
Notes: methotrexate growth selection, single substitutions
Parent: PYL1, truncated, DHFR fusion (Arabidopsis thaliana); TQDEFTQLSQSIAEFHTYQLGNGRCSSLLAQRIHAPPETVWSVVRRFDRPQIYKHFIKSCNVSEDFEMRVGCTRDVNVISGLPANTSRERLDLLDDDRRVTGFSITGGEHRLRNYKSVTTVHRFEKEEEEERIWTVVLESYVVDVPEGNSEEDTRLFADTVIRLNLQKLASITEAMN; partner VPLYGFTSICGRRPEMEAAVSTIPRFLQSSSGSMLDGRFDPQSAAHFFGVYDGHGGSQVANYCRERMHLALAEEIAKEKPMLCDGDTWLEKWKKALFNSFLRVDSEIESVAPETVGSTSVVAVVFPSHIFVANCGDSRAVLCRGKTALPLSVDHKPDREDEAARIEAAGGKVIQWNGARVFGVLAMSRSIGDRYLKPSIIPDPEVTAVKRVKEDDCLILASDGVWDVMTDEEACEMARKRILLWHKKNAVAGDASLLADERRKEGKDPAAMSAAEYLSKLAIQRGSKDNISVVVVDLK
I172E: -6.43%
G148P: 2.71%
E152R: 0.835%
K168W: 12%
T39R: 17.9%
V143D: 1.81%
R132G: 52.7%
V40H: -5.1%
F103H: 1.43%

Study 3 — target: CCNB1, cyclin fold, Cln2 fusion (human); technique: yeast growth competition, sequencing; matrix: yeast; notes: weak parent motif; relative to: not given; reading: higher = stronger binding; endpoint: normalised enrichment score
Parent: CDC6 docking peptide (human); TLKGRRLVFDNQL
TLKGRRLVFDEQL [N11E]: 0.299
TLKGRRPVFDNQL [L7P]: -0.00885
TLKGKRLVLDNQL [R5K F9L]: 0.385
VLKGRRLVFDNQL [T1V]: 1.15
TLAGRRLVFDNQL [K3A]: 0.161
TLKGRRLRFDNQL [V8R]: 0.708
TLKGWRLVFDNQL [R5W]: 0.203
TLKERRLVFDNQL [G4E]: -0.48
TLKGRRLVPDNQL [F9P]: 1.14
TLKNRRLVFDNQL [G4N]: 0.431

Single results of other studies
PhoQ, residues 284 288 289 292 302 303 TLASMF  fold induction (PhoP, residues 12 14 15 18 19 LHHSG (Escherichia coli, UniProt P23836); Sort-seq, measured: YFP reporter; E. coli; PhoQ-PhoP variant library, together with: 10 µM Mg2+; relative to: high Mg2+ state, higher = stronger signaling): 1.09

Some of these lines once more (study 3):
TLKERRLVFDNQL [G4E]: -0.48
TLKGRRLRFDNQL [V8R]: 0.708
TLKGWRLVFDNQL [R5W]: 0.203
